Assay results collected from several papers.
Compare with care: the assays were run in different laboratories.

| SMILES | test | system | setting | unbound fraction |
| --- | --- | --- | --- | --- |
| CC(=O)CC(c1ccccc1)c1c(O)c2ccccc2oc1=O (stereo not drawn) | plasma protein binding | dog plasma |  | 0.0529 |
| O=C(O)C(O)(c1cccs1)c1cccs1 | in vitro | human plasma |  | 0.026 |
| CC(C)CC(=O)OC[C@H]1O[C@@](C#N)(c2ccc3c(N)ncnn23)[C@H](O)[C@@H]1O | plasma protein binding | mouse plasma | 9 µM | 0.163 |
| NC(=O)[C@@H]1CC(F)(F)CN1C(=O)c1ccc(N2CC(F)(F)C2)c(OCC2CC2)n1 | equilibrium dialysis | mouse plasma |  | 0.0843 |
| N=C(CC(O)c1cc2c(F)cc(F)cc2c2cc(C(F)(F)F)ccc12)Nc1ccc(F)c(F)c1 (stereo not drawn) | equilibrium dialysis | diluted human plasma | 100 ng/mL, 24 h, plasma dilution 1:20 | 0.0027 |
| Cc1nonc1Cn1nnc2c(N3CC[C@H](O)C3)nc(C(C)(C)C)nc21 | equilibrium dialysis | human plasma |  | 0.0268 |
| C/C=C1/CN2CC[C@@]34c5cc(O)ccc5N(C)[C@]35OC[C@@]4(C(=O)OC)[C@H]1C[C@H]25 |  | rat plasma | 1 µM, 6 h | 0.129 |
| Cc1nc([C@@](C)(CC2CC2)NC(=O)c2cc(OCC(F)(F)F)c(C3CC3)cn2)no1 | equilibrium dialysis | human plasma |  | 0.0103 |
| CC(=O)c1c(C)c2cnc(Nc3ccc(C4CCN(CCS(C)(=O)=O)CC4)cn3)nc2n(C2CCCC2)c1=O |  | humans plasma |  | 0.02 |
| N=C(CC(O)c1cc2c(F)cc(F)cc2c2cc(C(F)(F)F)ccc12)Nc1ccc(Br)cc1 (stereo not drawn) | equilibrium dialysis | diluted human plasma | 100 ng/mL, 24 h, plasma dilution 1:20 | 0.0014 |
| O=c1c2cc(Cl)ccc2[nH]c(=S)n1Cc1cccnc1 |  | human plasma | 10 µM | 0.013 |
| CC(C)NCC(O)COc1cccc2ccccc12 (stereo not drawn) | plasma protein binding | human plasma |  | 0.172 |
